Results pooled from the literature.
Numbers after ± are the reported error. Converted amounts (≈) assume the structure as drawn.

| Structure (SMILES) | target or system | test | system | setting | scale | endpoint | value |
| --- | --- | --- | --- | --- | --- | --- | --- |
| CC(=O)NC[C@H]1CN(c2ccc(N3CCOCC3)c(F)c2)C(=O)O1 | Enterococcus faecalis |  | vancomycin-intermediate, 10 isolates | serum 25% |  | MIC50 | 2 µg/mL (≈ 5.93 µM) |
| CC(C)c1nc2[nH]c(=O)n(O)c(=O)c2s1 | Brassica rapa |  |  | 10 mg/mL, 72 h |  | root length inhibition | 54% |
| CN[C@H](CC(C)C)C(=O)N[C@H]1C(=O)N[C@@H](CC(N)=O)C(=O)N[C@H]2C(=O)N[C@H]3C(=O)N[C@H](C(=O)N[C@H](C(=O)O)c4cc(O)cc(O)c4-c4cc3ccc4O)[C@H](O)c3ccc(c(Cl)c3)Oc3cc2cc(c3O[C@@H]2O[C@H](CO)[C@@H](O)[C@H](O)[C@H]2O[C@H]2C[C@](C)(N)[C@H](O)[C@H](C)O2)Oc2ccc(cc2Cl)[C@H]1O | Streptococcus pyogenes |  | ATCC 19615 |  |  | MIC range | 0.25 µg/mL (≈ 0.173 µM) |
| Oc1ccccc1-c1n[nH]cc1-c1ccnc2ccccc12 | orf19.4575 Candida albicans | kinase binding, MIB/MS competition | Candida albicans lysate | 1 µM | relative to: DMSO | log2 fold change | 0.1 |
| OC(CCN1CCCCC1)(c1ccccc1)C1CC2C=CC1C2 (stereo not drawn) |  | resting-state EEG | healthy elderly humans | oral, 4 mg, eyes open, LS mean | relative to: baseline | change in EEG Beta1-power Pz-O2 | -5% |
| Cc1nc2[nH]c(=O)n(O)c(=O)c2s1 | Brassica rapa |  |  | 750 g/ha, 21 days, post-emergence, glasshouse pot |  | growth inhibition | 0% |
| CC(C)NCC(O)c1ccc(O)c(O)c1 (stereo not drawn) | mouse ventricular cardiomyocytes |  |  | dose not given, 0.027 s |  | sarcomere length | 1.8 µm |
| CCc1nc2[nH]c(=O)n(O)c(=O)c2s1 | Brassica rapa |  |  | 10 mg/mL, 72 h |  | root length inhibition | 77% |
| CN[C@H](CC(C)C)C(=O)N[C@H]1C(=O)N[C@@H](CC(N)=O)C(=O)N[C@H]2C(=O)N[C@H]3C(=O)N[C@H](C(=O)N[C@H](C(=O)O)c4cc(O)cc(O)c4-c4cc3ccc4O)[C@H](O)c3ccc(c(Cl)c3)Oc3cc2cc(c3O[C@@H]2O[C@H](CO)[C@@H](O)[C@H](O)[C@H]2O[C@H]2C[C@](C)(N)[C@H](O)[C@H](C)O2)Oc2ccc(cc2Cl)[C@H]1O | Enterococcus faecalis |  | intermediate susceptibility | 25% serum, 10 isolates |  | MIC50 | 2 µg/mL (≈ 1.38 µM) |
| Cc1nc2c(=O)n(O)c(=O)[nH]c2s1 | Brassica rapa |  |  | 100 mg/mL, 72 h |  | root length inhibition | 83% |
| c1coc(-c2n[nH]cc2-c2ccnc3ccccc23)c1 | CAK1 (Candida albicans) | kinase binding, MIB/MS competition | Candida albicans lysate | 1 µM | relative to: DMSO | log2 fold change | -0.22 |
| O=c1[nH]c2ncsc2c(=O)n1O | Brassica rapa |  |  | 1500 g/ha, 21 days, pre-emergence, glasshouse pot |  | growth inhibition | 65.7% |
| Cc1cc(OC(C)C)ccc1C(=O)C(C)(C)NC(=O)c1sccc1C | Botrytis cinerea | conidial germination | B05.10 | 10 µg/mL |  | inhibition | 99.8 ± 0.3% |
| Cc1nc2[nH]c(=O)n(OS(=O)(=O)c3ccccc3)c(=O)c2s1 | Brassica rapa |  |  | 10 mg/mL, 72 h |  | root length inhibition | 20% |
| Cn1cc(-c2ccc(-c3cncc(Cl)c3N3CCC4(CCNC4=O)CC3)cc2)cn1 | COLO 205 | gene expression, microarray, item: HIST1H4L mRNA |  | concentration not given, 2 h | relative to: untreated cells | log2 fold change | -1.48 |
| Cc1cc(F)cc2c(CCC(=O)N[C@@H]3C(=O)NC[C@H]3O)c(-c3ccc(F)cc3)[nH]c12 |  |  | mice, APOL1 G2, single copy | oral, 30 mg/kg twice daily, day 9, dosing from day 6, together with: IFNγ plasmid injection |  | UACR | 1830 µg/mg |
| CC(=O)N(C)[C@H]1CCN(C(=O)c2cnc3c(c2)C[C@](C)(c2ccc(F)cc2)N3)C1 | vanin activity |  | human, whole blood ex vivo stimulated | 60 mg, 1 h post-dose | relative to: baseline | pantothenic acid level | 12.3% |
| O=S(=O)(NCCNC/C=C/c1ccc(Br)cc1)c1cccc2cnccc12 | PKA | inhibitor | mouse zygotes | 20 µM, injection, hCG, 72 h post, early embryonic development |  | embryos at morula stage | 0% |

Some of these lines once more:
| Structure (SMILES) | target or system | test | system | setting | scale | endpoint | value |
| --- | --- | --- | --- | --- | --- | --- | --- |
| Cc1cc(OC(C)C)ccc1C(=O)C(C)(C)NC(=O)c1sccc1C | Botrytis cinerea | conidial germination | B05.10 | 10 µg/mL |  | inhibition | 99.8 ± 0.3% |
| O=S(=O)(NCCNC/C=C/c1ccc(Br)cc1)c1cccc2cnccc12 | PKA | inhibitor | mouse zygotes | 20 µM, injection, hCG, 72 h post, early embryonic development |  | embryos at morula stage | 0% |
